# Assay results from different studies.
# ± marks the error that the study gave.
Compound,cell line,test,conditions,how to read,measurement,result
COc1cc(CNC(=O)C[C@H](C)CCC=C(C)C)ccc1OCc1cn(-c2cccc(Cl)c2)nn1,LOX IMVI,SRB,"10 µM, 48 h",,growth,75.1%
CC(=O)OC[C@H]1O[C@@H](Sc2sc(C(=O)c3ccc(Br)cc3)c(N)c2-c2nc3ccccc3s2)[C@H](OC(C)=O)[C@@H](OC(C)=O)[C@H]1OC(C)=O,ACHN,SRB,"10 µM, 48 h",reference: untreated,growth,90.5%
COc1cc(CNC(=O)C[C@H](C)CCC=C(C)C)ccc1OCc1cn(-c2ccc([N+](=O)[O-])cc2)nn1,Hs-578T breast cancer cells,SRB,"10 µM, 48 h",,growth percent,82%
CC(C)Cc1ccc(C(C)C(=O)NN=Cc2ccc(OCC(=O)NN=Cc3cccc([N+](=O)[O-])c3)cc2)cc1 (stereo not shown),U87 MG,MTT,"100 µM, 48 h",,viability,62.2%
CC(=O)O[C@@H]1CC[C@@]2(C)C(CC[C@]3(C)C2C(=O)C=C2C4[C@@H](C)[C@H](C)CC[C@]4(C)CC[C@]23C)[C@@]1(C)C(=O)O[C@@H]1C[C@H](C)CC[C@H]1C(C)C (stereo partly shown),RAW264.7,"NO release, inhibitor, Griess","10 µM, 24 h, LPS-stimulated",,inhibition,82.5%
COc1cc(CNC(=O)C[C@H](C)CCC=C(C)C)ccc1OCc1cn(-c2ccc(C#N)cc2)nn1,LOX IMVI,SRB,"10 µM, 48 h",,growth,72.6%
CS(=O)(=O)c1ccc(-c2nnc(/C=C/c3nnc(-c4ccc(C#N)cc4)o3)n2-c2ccccc2Cl)nc1,COLO 320DM,"immunofluorescence, refers to: non-phosphorylated β-catenin","1 µM, 16 h, DMSO 100%",,active β-catenin level,26.4%
C[C@H](NC(=O)CNC(=O)[C@H](CCC(=O)O)NC(=O)[C@H](CCC(=O)O)NC(=O)[C@H](CC(=O)O)NC(=O)[C@@H]1CCCN1C(=O)[C@H](Cc1ccccc1)NC(=O)[C@H](CS)NC(=O)[C@H](Cc1ccc(O)cc1)NC(=O)CCCNC(=O)CNC(=O)CNC(=O)[C@@H](C)NC(=O)CN)C(=O)N[C@@H](CS)C(=O)N[C@@H](Cc1ccc(O)cc1)C(N)=O [technetium-99m labelled],SK-BR-3,,"1 h, 37 °C",,internalization,7.21 ± 0.09%
CN1CCN(C(=O)N(CCCCCCC(=O)NO)c2ccc(-c3ccc4cnn(C)c4c3)cc2)CC1,MM1.S and RPMI-8226,"immunoblot, refers to: cyclin D1 and CDK4",concentration not given,,protein level,decreased
CC(C)C(=O)Cc1c(OCC(O)C(C)(C)O)ccc2ccc(=O)oc12 (stereo not shown),"COLO 320 (ABCB1-overexpressing, multidrug-resistant)",cell growth,"200 µM starting, CI at ED50, added: doxorubicin, ratio 92.8:1",,combination index,0.82
Nc1nc2cc(CC[C@H]3C[C@@H](n4ccc5c(N)ncnc54)[C@H](O)[C@@H]3O)ccc2cc1Br,NCI-H1048,"SmD1/3 dimethylation, refers to: SmD1/3-Me2","10 nM, 48 h",,inhibition,80%
COc1cc(CN2CCN(c3ccccc3Cl)CC2)c2cc3[n+](cc2c1O)CCc1cc2c(cc1-3)OCO2,HeLa and MDCK,SRB,48 h,reference: CC50 MDCK over IC50 HeLa,therapeutic index,27.3
COc1cc(N2CCN(C(=O)C(N)CCCNC(=N)N)CC2)ccc1Nc1ncc(Cl)c(Nc2ccccc2P(C)(C)=O)n1 (stereo not shown),NCI-H3122 GID4 knockout,degrader,"concentration not given, 24 h",reference: parental cells,EML4-ALK level,no effect
C[N+]1(CC(=O)OC2CCCCCCCCCCC2)CCCCC1,DU-145,"cell viability, CellTiter Blue",96 h,,ED90,29.1 µM
O=C1OCC2=C1C(c1cccc(Br)c1)C1=C(N2)C(=O)c2ccccc2C1=O (stereo not shown),SK-LU-1 cells,PI flow cytometry,"0.16 µM, 24 h",,cells in G0/G1 phase,0%
COc1cc2c(OC3OCC(OC)C(OC)C3OC(=O)c3ccc(Br)cc3)c3c(c(-c4ccc5c(c4)OCO5)c2cc1OC)C(=O)OC3 (stereo not shown),CAL-27,"qRT-PCR, refers to: CTSD","0.1, 1, 2 µM, 36 h, added: bafilomycin A1 0.1 µM",reference: DMSO,mRNA level,decreased
FC(F)(F)c1ccnc(-c2cc(C(F)(F)F)ccn2)c1.FC(F)(F)c1ccnc(-c2cc(C(F)(F)F)ccn2)c1.[Cl-].[Cl-].[Ru+2].c1csc(-c2ccc(-c3ccc(-c4ccc(-c5nc6c7cccnc7c7ncccc7c6[nH]5)s4)s3)s2)c1,SK-MEL-28,"cell viability, resazurin","visible light, hypoxia 1% O2",,EC50,0.13 to 0.54 µM
COCCO[C@H]1CC[C@H](Nc2cc(=O)n(C)c3ccc(-c4cncs4)cc23)CC1,PBMC,ELISA,"10 µM, 48 h",reference: untreated,IFN-γ increase,82.9%
COc1cc(CNC(=O)C[C@H](C)CCC=C(C)C)ccc1OCc1cn(-c2ccc(Cl)c(Cl)c2)nn1,T47D breast cancer cells,SRB,"10 µM, 48 h",,growth percent,33.6%
CC(C)CNC(=O)[C@@H](NC[C@@H](O)[C@H](Cc1ccccc1)NC(=O)c1cc(C(=O)N[C@H](C)c2ccccc2)cc(N(C)S(C)(=O)=O)c1)[C@H](C)O,MIN6,"Tmem27 processing, Western blot, refers to: Tmem27 C-terminal fragment","0.4 µM, added: DAPT",,remaining C-terminal fragment,< 5%
COc1cc(CNC(=O)C[C@H](C)CCC=C(C)C)ccc1OCc1cn(-c2ccccc2[N+](=O)[O-])nn1,LOX IMVI,SRB,"10 µM, 48 h",,growth,62%
Cc1cc(Nc2ccc(NC(=O)c3ccc(NC(=O)c4ccncc4)cc3)cc2)nc(N)n1,KG-1 with methylated CMV-luciferase,luciferase reporter gene,"0.32 µM, 24 h",reference: untreated,reporter reactivation,1 ± 0.1 fold
COc1cc(CNC(=O)C[C@H](C)CCC=C(C)C)ccc1OCc1cn(-c2ccc(Br)cc2)nn1,MDA-MB-435 melanoma cells,SRB,"10 µM, 48 h",,growth percent,98.3%
CC(=O)OC[C@H]1O[C@@H](Sc2sc(C(=O)c3ccc(C)cc3)c(N)c2-c2nc3ccccc3s2)[C@H](OC(C)=O)[C@@H](OC(C)=O)[C@H]1OC(C)=O,EKVX,SRB,"10 µM, 48 h",reference: untreated,growth,68.3%
COc1cc(CNC(=O)C[C@H](C)CCC=C(C)C)ccc1OCc1cn(-c2ccc(Cl)cc2Cl)nn1,LOX IMVI,SRB,"10 µM, 48 h",,growth,80.7%
CCOC(=O)c1csc2nc(-c3cccc(NC(=O)c4cc5cc(NC(=O)c6ccco6)ccc5n4Cc4ccc(C(F)(F)F)cc4)c3)cn12,RAW264.7,,"10 µM, added: LPS",reference: control,intracellular Fe2+ level,increased
COc1cc(CNC(=O)C[C@H](C)CCC=C(C)C)ccc1OCc1cn(-c2cccc([N+](=O)[O-])c2)nn1,EKVX,SRB,"10 µM, 48 h",,growth percent,69%
CC/C=C\C/C=C\C/C=C\C/C=C\C/C=C\C/C=C\CCC(=O)Nc1ccn(C2OC(CO)C(O)C2(F)F)c(=O)n1 (stereo not shown),EKVX,NCI60 screen,,,TGI,20.4 µM
C=CC(=O)Nc1cccc(Cn2ncc3cnc(Nc4cnn(CCOC)c4)nc32)c1,human PBMC or CD34+ cells,Western blot,"concentration not given, added: non-JAK3 cytokines",,STAT phosphorylation,no inhibition
CC(C)C[C@H](NC(=O)[C@H](CC(C)C)NC(=O)[C@@H](N)C(C)C)C(=O)N[C@@H](CO)C(=O)N1CCC[C@H]1C(=O)N[C@@H](CC(C)C)C(=O)N[C@@H](CO)C(=O)N[C@@H](CCCNC(=N)N)C(=O)N[C@H](C(=O)O)C(C)C,"SK-N-MC, HLA-A*02:01",quantitative immunopeptidomics,,,peptide-MHC complexes per cell,3 p-MHC complexes/cell
CC(C)Cc1ccc(C(C)C(=O)N/N=C/c2ccc(OCC(=O)N/N=C/c3c(O)ccc4ccccc34)cc2)cc1 (stereo not shown),U87 MG,MTT,"80 µM, 48 h",,viability,99%
COc1ccc(S(=O)(=O)N2CCc3ccccc3C2)cc1N1CCN(C(=O)c2ccc(F)cc2C(F)(F)F)CC1,mouse midbrain dopamine neurons,,"75 nM, 48 h, added: MPP+ 2 µM",,TH-positive neuron count,335 ± 20.3
CC(C)Cc1ccc(C(C)C(=O)N/N=C/c2ccc(OCC(=O)N/N=C/c3cccc(O)c3)cc2)cc1 (stereo not shown),U87 MG,MTT,"40 µM, 48 h",,viability,109%
COc1ccc2c(c1)CCN(c1cccc(-c3nc4ccc(N5CCN(C)CC5)cc4[nH]3)c1)C2,HT-22,"protection from ferroptosis, CCK-8 viability","24 h, added: 1 µM erastin",,EC50,1.01 µM
CCC[C@H]1CC[C@H](c2ccc(NC(=S)NC[C@@H]3[C@@H](O)[C@@H](O)[C@H]4[C@H](O)CCCN43)cc2)CC1,Huh-7,fluorescent lectin imaging,"10 µM, 48 h",,galectin-1 binding to cell surface,decreased
Cc1ccc(C(C)C)cc1.O=C([N-]c1nc2ccccc2[nH]1)c1cnccn1.[Cl-].[Ru+2],Caco-2,"cytotoxicity, MTT",,reference: KMST-6 over Caco-2,selectivity index,> 2
CC(C)=CCc1c(OCC2OC2(C)C)ccc2ccc(=O)oc12 (stereo not shown),"COLO 320 (ABCB1-overexpressing, multidrug-resistant)",cell growth,"150 µM starting, CI at ED50, added: doxorubicin, ratio 557.44:1",,combination index,0.73

# A few entries again:
Compound,cell line,test,conditions,how to read,measurement,result
COc1cc(CNC(=O)C[C@H](C)CCC=C(C)C)ccc1OCc1cn(-c2cccc(Cl)c2)nn1,LOX IMVI,SRB,"10 µM, 48 h",,growth,75.1%
COc1cc(CNC(=O)C[C@H](C)CCC=C(C)C)ccc1OCc1cn(-c2ccccc2[N+](=O)[O-])nn1,LOX IMVI,SRB,"10 µM, 48 h",,growth,62%
COc1cc(CNC(=O)C[C@H](C)CCC=C(C)C)ccc1OCc1cn(-c2ccc([N+](=O)[O-])cc2)nn1,Hs-578T breast cancer cells,SRB,"10 µM, 48 h",,growth percent,82%
CN1CCN(C(=O)N(CCCCCCC(=O)NO)c2ccc(-c3ccc4cnn(C)c4c3)cc2)CC1,MM1.S and RPMI-8226,"immunoblot, refers to: cyclin D1 and CDK4",concentration not given,,protein level,decreased
